Experimental data collected from several papers.
Compare with care: the assays were run in different laboratories. ± gives the spread as reported.

Structure (SMILES) | cell line | assay | conditions | IC50
COc1cc2ncc(-c3cccc(NC4CCNC4)n3)n2cc1-c1cnn(C)c1 (racemic) | MOLM-14 FLT3 F691L | cell growth | – | 0.667 µM
COc1cc(C(=O)N2CCC(N3CCN(C)CC3)CC2)ccc1Nc1ncc2c(n1)N(C1CCC1)c1ccccc1C(=O)N2C | 797 NUT midline carcinoma cells | viability, CellTiter-Glo | 3 days | 0.116 ± 0.001 µM
CCOc1cc(C(C)(C)C)ccc1C1=N[C@@H](c2ccc(Cl)cc2)[C@@H](c2ccc(Cl)cc2)N1C(=O)N1CCN(CC(=O)NCCOCCOCCOCCNC(=O)CN2CCN(C(=O)N3C(c4ccc(C(C)(C)C)cc4OCC)=N[C@H](c4ccc(Cl)cc4)[C@@H]3c3ccc(Cl)cc3)CC2=O)C(=O)C1 | HCT-116 p53 knock-out | cell growth, CCK-8 | – | > 50 µM
CC(C)(N)c1nc2cc(-c3ccnc(F)c3)sc2c(=O)[nH]1 | COLO 205 | cell growth, MTT | – | 1.07 ± 0.075 µM
CN(C)C(=O)Cn1cc(-c2ccc(-c3cncc4ccncc34)cc2)cn1 | KG-1 | cell growth, viability | – | < 1 µM
CC(C)[C@H](N)c1nc2cc(-c3cc(F)ncc3F)sc2c(=O)[nH]1 | COLO 205 | cell growth, MTT | – | 0.336 ± 0.0135 µM
O=C(NCCCl)Oc1ccc(Cl)c2cccnc12 | HUVEC | cell proliferation, [3H]thymidine incorporation | – | 2.11 ± 0.25 µM
COCC#Cc1cc(-c2nn(-c3nc(C(=O)O)cs3)c(CC3CC3)c2Cc2ccc(S(N)(=O)=O)c(F)c2)ccc1F | HEK293T | lactate production | 1 h | 1.3 µM
CN1c2ccc(F)cc2C(=O)N2CCc3c([nH]c4ccc(OCc5cccc(C(=O)NO)c5)cc34)C21 (centres unmarked) | A549 | cell viability, CCK-8 | – | > 20 µM
NS(=O)(=O)c1ccc(Cc2c(-c3ccc(F)c(/C=C/C4CCCC4)c3)nn(-c3nc(C(=O)O)cs3)c2CC2CC2)cc1F | HEK293T | lactate production | 1 h | 0.1 µM
C=CC(=O)N1CCC(c2cc(Nc3cc4n(n3)CCOC4)c3ncnn3c2)C1 (single isomer, unassigned) | TMD8 wild type | calcium flux, FLIPR | 4 h preincubation, with: anti-IgM | > 1 µM
Cc1ccc2oc(-c3c4c(N)n[nH]c(=O)c4nn3-c3ccc(S(C)(=O)=O)cc3)c(C)c2c1 | SNU-16 (FGFR2 amplified) | cell proliferation | – | > 1 µM
COc1ccc(CC(=O)OCc2ccc(-n3cccn3)cc2)cc1F | WI-38 | cytotoxicity | – | > 100 µM
NS(=O)(=O)c1ccc(Cc2c(-c3ccc(F)c(C#CC4CCCC4)c3)nn(-c3nc(C(=O)O)cs3)c2CC2CC2)cc1F | HEK293T | lactate production | 1 h | 0.5 µM
CN1CCN(c2cc(C(=O)Nc3ccc4c(c3)-c3c(c(C(N)=O)nn3-c3ccc(F)cc3)CC4)c(Cl)cn2)CC1 | human PBMC | TNF-α production, MSD | 2 h pretreatment, LPS for 18 h, with: LPS 10 ng/mL | 0.04 to 0.07 µM
O=C(O)c1cc(N2C(=O)c3ccc4c5c(ccc(c35)C2=O)C(=O)N(c2ccc(O)c(C(=O)O)c2)C4=O)ccc1O | PC-12 | neurite outgrowth | 72 h, with: 500 pM NGF | 11.1 µM
CC[C@@H](C)[C@H](N)C(=O)N1Cc2ccc(F)cc2C1 | SET-2 | cell viability, CellTiter-Glo | – | 0.02 µM

Repeated from above:
Structure (SMILES) | cell line | assay | conditions | IC50
O=C(O)c1cc(N2C(=O)c3ccc4c5c(ccc(c35)C2=O)C(=O)N(c2ccc(O)c(C(=O)O)c2)C4=O)ccc1O | PC-12 | neurite outgrowth | 72 h, with: 500 pM NGF | 11.1 µM
